Results from different studies.
Numbered parts are unrelated; each lists some results of a single study.

Study 1 — technique: RNA Bind-n-Seq; molecule type: RNA; medium: in vitro; concentration: 100 nM; relative to: input RNA pool; reading: higher = stronger binding
Target: RING finger protein unkempt homolog, zinc fingers 1-6, SBP tag (UNK, Homo sapiens, UniProt Q9C0B0, residues 30-357)
Sequence of UniProt Q9C0B0 (30-357, looked up): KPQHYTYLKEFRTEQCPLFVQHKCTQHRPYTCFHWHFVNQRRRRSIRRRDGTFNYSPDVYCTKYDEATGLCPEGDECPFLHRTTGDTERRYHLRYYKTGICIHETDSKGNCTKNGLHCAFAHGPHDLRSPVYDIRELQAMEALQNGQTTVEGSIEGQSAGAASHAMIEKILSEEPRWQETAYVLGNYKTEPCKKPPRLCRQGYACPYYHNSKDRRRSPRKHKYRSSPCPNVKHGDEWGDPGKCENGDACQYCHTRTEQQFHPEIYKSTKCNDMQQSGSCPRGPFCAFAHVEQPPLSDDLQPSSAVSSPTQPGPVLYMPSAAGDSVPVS
Notes: RNA with constant flanks, vertebrate orthologous sites, ends assumed
Oligonucleotide | bound/input enrichment [ratio]
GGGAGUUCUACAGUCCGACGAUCGAUAUUGAAUAGUAUUAAACAUUUUCGUCUUCCUUUAUCUUUUAUCUCCUACCCAAUAUUUAGUCUACUUUUUAAAAUUUCAGACUUCACUGCUCUUUGAACUGAUAGUUCCAAUUUUCACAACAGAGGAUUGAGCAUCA | 1.13
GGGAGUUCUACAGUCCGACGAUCGCCAUGUAGAGUAAGGUCCUGUUCUCCUUAGGAUGUUUUUUCCUUGUGUGUUUUUUUUUUCUAGGGGUGGGGGUGGGAUUAUGGCACACACCGACUCUGAGGCGAGCACUGCAGGGUCAUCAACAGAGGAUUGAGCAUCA | 0.848
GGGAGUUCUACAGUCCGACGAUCCUAUUGUUAAGCACUGUGUUCCAGACCGUGUCUGACUUUAGCAUAAACUAGGAGAUUUUAUAGUUUUAUUUUAAUGAAGUCCUGCCCAAUGUAGAGCAGCGUCUUCUACGUGUGGCAGCACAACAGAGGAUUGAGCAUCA | 1.56
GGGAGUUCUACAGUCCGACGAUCAGGAAAUGCUGGCUGCAAACCCUCAGGAUCGUCCAGAUGCUUUUGAACUAGAACUCAGAUUAGUACAAAUUGCAUUUAAAGAUAGCAGCUGGGAGACGUGACACAUAUAUUAUUUGCAAACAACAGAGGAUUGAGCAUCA | 1.16
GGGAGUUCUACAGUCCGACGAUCGGCCUCCUGAACUUCUAGCUUUCAAGCUGUGGCUGUUUUAGAUACUGGUUUUAUUUUCUUUGCAGUUUUUCCCUGUUGCCCACAUUCUCUCCCCCUCUUCCCAAGGUUUGACUCAUGGAUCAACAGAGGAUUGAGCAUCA | 1.17
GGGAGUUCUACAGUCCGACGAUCGCUCUAGUUCUUAAGAACCAACACUUGUAAGAGAUUUAGAAAAAAGUUUACAACAUAAUCUAGUUUACCGAAAGAGCCUUGUGCUAGAAUACUUUUUAAAAAGUAUUUUUGAAUACUAUUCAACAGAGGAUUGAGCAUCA | 0.565
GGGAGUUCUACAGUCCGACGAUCUCCAGUCUUACACUUAUAGUUGGCCUCAAAUCUAUUGCAUUUAUGAUAAUGUAUUAUAUCUAGUUGAGUUUAAUAUUUUUUUAUUAGCUUGUAAAUAAAGAUGGCAUCUUCUACAUUAAACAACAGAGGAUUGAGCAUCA | 0.803
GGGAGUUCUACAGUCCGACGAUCGACAGAGGCACUUUCUCCUUUGGUCUUUCGUUCUAAGAAGAAAAGGACCCAUGCACAUUUAUAGCUUUCUAAUAGCAUUAAAACCAAGGCCUUUUGUAGACUCCUAUUUUUGAUGUAUAUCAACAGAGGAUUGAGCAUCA | 0.42
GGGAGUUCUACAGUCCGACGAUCUUUUAUUGAUCAGGUCUGUAAAUGUGUACUAAAAAAAUCAGAGUCUAUUUAUAAACAGAAUAGUUUAUUUAAAGAGGUCUUUCCUCACAAUGUUGUGAUAUGCGUAAUUCCAUUUGUUACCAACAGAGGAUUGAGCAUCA | 0.314
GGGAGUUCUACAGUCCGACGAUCAAUCAGUAGAAUUACAUAAUACUAAAGUUGCAGUUGAAAGGAUAUCCAAGUAUGUGUUGGUAGUUACUAAAAGAAUUAUAGCUGUUAUUGCCUUGUAUUGAUAGCCCUUGUUUCAGGUUUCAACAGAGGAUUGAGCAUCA | 0.888
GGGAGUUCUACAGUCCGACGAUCUGUAGAGAAAAAUUUUUCAUUGACCCUCCCCCACAUUGUGUAAUUCCAUAGAAAUUUAUUUGGAAUCUUAAUUUUUCUAAUUCAUACUUGCUGCAAUAGUCAUUUUAAGGCCAUAAUGAACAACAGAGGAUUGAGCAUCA | 0.47

Study 2 — technique: RNA Bind-n-Seq; molecule type: RNA; medium: in vitro; concentration: 365 nM; relative to: no-protein control; reading: higher = stronger binding
Target: RNA binding protein fox-1 homolog 2, RRM domain, GST-SBP tag (RBFOX2, Homo sapiens, UniProt O43251-10, residues 100-194)
Notes: natural RNA segment, single round, ends assumed
Target sequence (chain): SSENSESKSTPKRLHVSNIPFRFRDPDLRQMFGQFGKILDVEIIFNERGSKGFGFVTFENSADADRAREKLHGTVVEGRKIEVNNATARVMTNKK
Oligonucleotide | RBNS enrichment (R)
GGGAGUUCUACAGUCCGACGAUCGGCAUUGGUGCCUCCCUGGCAAGUCCUUAACGUACAGUACCUGUAGCUGUGAGUGUGGCCUGCUGCCUGCUUGUGAUGAGUGAUACCGUCUUACUGUUUCUGUUUCACAUUGGAAUUCUCGGGUGCCAA | 0.567
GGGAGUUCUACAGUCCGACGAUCAGAACAUGAAAUGCUUCUUUCUCAGUUUAUUGGUUGAAUGUGUAUCUAUUUGAGUCUGGAAAUAACUAAUGUGUUUGAUAAUUAGUUUAGUUUGUGGCUUCAUGGAAACUUGGAAUUCUCGGGUGCCAA | 3.69
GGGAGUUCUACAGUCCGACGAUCUCUUGGAGAAAACCAACCAUAAACUUACAGCUCUAAAAUUCAGAAAGCCCUAAAAUUUCAAACACUGUUUGAAAGAAGAGGUGGGGGCCGGGUGCCGUGGCUCAUGCCUGUGGAAUUCUCGGGUGCCAA | 0.769
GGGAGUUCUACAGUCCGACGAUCCUGGUCCCCCACCUAUCAGCACCAACUCUCAGUUCAUCAGGGUUGAGAAAGGACACUGGAUUGAGCUUCUGAAAUGCCACUGGUAGCUCUGUAACAUGGGAAUGGAAAUGUGGAAUUCUCGGGUGCCAA | 0.708
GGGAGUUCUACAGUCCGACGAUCCUUCUGGCUGGAAUGCUGUUCACGUCUGCAUCCAGCCCUGGGAUCGGCCUUCGUGUAUGGUUUCACCUUCCCAUGCUGCACUCUUUCCUGAGCCAUGUGGGAGUCGUGUGUGGAAUUCUCGGGUGCCAA | 0.266
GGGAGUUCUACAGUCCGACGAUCUAUGGCUGACCCACUCCAGGCCAAGCAGCUUAACAGCAGGCUUGCUGUUAAGUCCCAAGUCCGUCAUGGGGUCAGGUUACACCCAGAGGUGUUUUCACUGUGGGGUUCCAUGGAAUUCUCGGGUGCCAA | 0.225
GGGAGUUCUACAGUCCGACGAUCCCCUUUUGGGGCAUGCACUUUCUUUCCUUUCUCAAAAUAAUGUUAUAUGUGGCCACACUGAUGUUCACCUUUACGUCCAGGGUCUUUGUGCCUUGUCUCUACUCCCUCUCUGGAAUUCUCGGGUGCCAA | 0.492
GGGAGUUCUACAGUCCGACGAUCUAUGGAGACUGAUUUGGUGGGAAAAAACCUGUUACUUUCCAGUCACCCCAGGUUCUGACUUUACCUGGGGCAAAAACAAACCACAAAAAGGGAGAAUCUCAUCUGUGAAUUGGAAUUCUCGGGUGCCAA | 0.541
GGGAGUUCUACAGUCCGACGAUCACUAAUGGAGUUUCAUUGUAACUGUCCUUUGUAAUUUAUAUAAAUGUAUUAUUUUCCUAUAUCCUUGGUUCUUUUCUGAUAAUUUACAGAUUUAGCUUUUCUUUUGUUAUUGGAAUUCUCGGGUGCCAA | 1.06
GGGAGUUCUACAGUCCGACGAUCUUUGAAACAAAGCUGUACGGUUUGAUCGAUGAACGUAUUUAAAGCAUUUCAUGCAAUGACAAAGUGCUCAGUAGUGGAAGGCAGGCUGUGACCAGUCUGCCUGCUCCUUAUGGAAUUCUCGGGUGCCAA | 0.354
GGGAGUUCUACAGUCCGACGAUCCCAGGAGUUUGAGACUAGACUGGGCAACAUAGCAAGACCCCGUCUCUACAAAGCACAACGAAAAACAACAAAUGGAGUUGUGCUAUGUUGUAUUGCUUUGCACAAAAUUAUGGAAUUCUCGGGUGCCAA | 0.48
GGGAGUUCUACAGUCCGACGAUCAUAAAUAACUAAGUACAAAGCACAGUUGUAACUACCUGAAAUAUGAAGAUCCAGUUUCAUACAAACAUUUGUAUGAUGUGAAUAGUUGAUGGCAUUUUUUUGUCAUGAAAUGGAAUUCUCGGGUGCCAA | 0.466

Study 3 — technique: protein-binding microarray; molecule type: double-stranded DNA, one strand shown; medium: in vitro; concentration: not given; reading: higher = stronger binding
Target: Transcriptional repressor CTCF (CTCF, Homo sapiens, UniProt P49711, residues 1-727, full length assumed)
Notes: k-mer, scored over probes, only values ≥0.25
Residues (chain): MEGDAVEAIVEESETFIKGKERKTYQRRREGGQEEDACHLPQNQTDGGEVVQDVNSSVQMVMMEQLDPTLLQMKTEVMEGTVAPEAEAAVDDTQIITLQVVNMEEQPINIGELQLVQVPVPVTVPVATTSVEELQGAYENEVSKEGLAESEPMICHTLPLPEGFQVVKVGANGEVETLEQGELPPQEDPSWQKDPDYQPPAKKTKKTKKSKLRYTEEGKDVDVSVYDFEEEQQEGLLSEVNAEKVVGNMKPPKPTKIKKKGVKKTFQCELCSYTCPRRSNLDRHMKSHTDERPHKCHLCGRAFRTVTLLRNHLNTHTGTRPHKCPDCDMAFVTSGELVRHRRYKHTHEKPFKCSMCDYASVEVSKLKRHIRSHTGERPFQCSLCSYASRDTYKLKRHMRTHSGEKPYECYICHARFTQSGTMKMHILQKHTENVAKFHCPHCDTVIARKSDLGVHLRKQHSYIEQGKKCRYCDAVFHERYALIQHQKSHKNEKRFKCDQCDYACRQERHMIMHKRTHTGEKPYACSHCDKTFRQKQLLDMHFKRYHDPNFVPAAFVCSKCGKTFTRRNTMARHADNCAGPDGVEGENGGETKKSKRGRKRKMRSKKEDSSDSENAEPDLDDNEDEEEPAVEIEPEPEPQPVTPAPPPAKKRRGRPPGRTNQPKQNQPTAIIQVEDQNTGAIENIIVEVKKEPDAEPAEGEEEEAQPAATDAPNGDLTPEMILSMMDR
Oligonucleotide | E-score
GATATTTA | 0.256
GAATTTAC | 0.259
ATAACGTG | 0.304
ATTATAAC | 0.341
ATAATCAT | 0.31
GCGCCATA | 0.325
ATTATCGC | 0.3
ATGTGAAA | 0.344
CACATGCG | 0.276
GAATAATA | 0.292
GCCATATA | 0.283
AAACCATA | 0.281
ACTTGCGC | 0.313
AAATTATA | 0.314
ATTATGCG | 0.403
ACGTAATA | 0.312
ATATTGAT | 0.297

Study 4 — technique: protein binding microarray; molecule type: double-stranded DNA, one strand shown; medium: in vitro; concentration: not given; relative to: not given; reading: higher = stronger binding
Target: Histone acetyltransferase KAT6A, winged helix 1, GST fusion (KAT6A, Homo sapiens, UniProt Q92794, residues 1-85)
Notes: 8-mer, flanks averaged, mean of 2 arrays, mostly near background
Residues (chain): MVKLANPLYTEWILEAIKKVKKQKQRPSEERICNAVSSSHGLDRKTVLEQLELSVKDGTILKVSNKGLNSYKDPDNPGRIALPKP
Oligonucleotide | E-score
GCTGCATA | -0.118
CACAAACA | -0.245
AATGTACT | -0.00604
CAGGGGCA | -0.114
CAAAACAA | -0.148
ACGGTGCG | 0.267
AATATGAT | -0.116
ACATTTAC | 0.0146
AGAAACCA | -0.278
TCGACGCA | 0.127
AAGGCATG | -0.183
GCATCTAA | -0.0709
AACTATGA | -0.064
AGAGTAAT | -0.126
GAGGACGC | 0.191
AACGGCGT | 0.332
GGGATACC | 0.111
CGTTGTGA | -0.079
ATTAATCG | 0.0697
CTTGAAGC | 0.0263
GAGTCGAC | 0.023
